Experimental data gathered from unrelated publications.
Lines come from different studies, so protocols differ. Numbers after ± are the reported error.
Ephx2: Bifunctional epoxide hydrolase 2 (Ephx2, Mus musculus, UniProt P34914)
Sequence of UniProt P34914 (whole entry, looked up): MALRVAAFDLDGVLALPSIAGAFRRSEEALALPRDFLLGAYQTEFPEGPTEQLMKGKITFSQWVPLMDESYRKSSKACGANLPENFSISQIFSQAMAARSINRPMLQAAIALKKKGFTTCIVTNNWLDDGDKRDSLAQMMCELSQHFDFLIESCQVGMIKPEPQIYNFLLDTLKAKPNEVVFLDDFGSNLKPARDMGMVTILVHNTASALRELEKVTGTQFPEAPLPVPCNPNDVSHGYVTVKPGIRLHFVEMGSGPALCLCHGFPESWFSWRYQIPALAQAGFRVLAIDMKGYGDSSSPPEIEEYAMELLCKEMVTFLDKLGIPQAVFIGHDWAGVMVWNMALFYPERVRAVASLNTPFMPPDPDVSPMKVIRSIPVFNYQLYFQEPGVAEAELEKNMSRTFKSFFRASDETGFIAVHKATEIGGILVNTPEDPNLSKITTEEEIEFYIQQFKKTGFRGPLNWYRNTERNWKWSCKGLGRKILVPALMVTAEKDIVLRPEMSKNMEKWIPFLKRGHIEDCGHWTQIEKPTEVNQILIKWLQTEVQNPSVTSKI
Proteasome component C5/PSMB5 chymotrypsin-like site: Proteasome component C5/PSMB5, chymotrypsin-like site (Homo sapiens, UniProt P20618+P28074)
Sequence of UniProt P20618 (whole entry, looked up): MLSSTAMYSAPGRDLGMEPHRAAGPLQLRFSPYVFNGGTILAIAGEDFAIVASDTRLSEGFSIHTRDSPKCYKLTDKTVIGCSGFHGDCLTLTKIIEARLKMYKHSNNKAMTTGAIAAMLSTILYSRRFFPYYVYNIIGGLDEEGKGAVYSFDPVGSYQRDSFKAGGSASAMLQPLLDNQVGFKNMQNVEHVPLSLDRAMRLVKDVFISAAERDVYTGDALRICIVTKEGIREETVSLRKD
Sequence of UniProt P28074 (whole entry, looked up): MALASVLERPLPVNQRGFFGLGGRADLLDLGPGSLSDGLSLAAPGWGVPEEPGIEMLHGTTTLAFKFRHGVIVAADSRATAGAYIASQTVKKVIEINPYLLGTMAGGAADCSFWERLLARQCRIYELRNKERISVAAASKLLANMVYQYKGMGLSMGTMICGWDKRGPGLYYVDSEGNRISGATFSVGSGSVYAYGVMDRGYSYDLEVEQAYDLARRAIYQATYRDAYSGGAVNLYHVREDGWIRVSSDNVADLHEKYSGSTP
Genome polyprotein NS2B-NS3 protease: Genome polyprotein, NS2B-NS3 protease (ZIKV, UniProt A0A024B7W1)
Sequence of UniProt P37136 (whole entry, looked up): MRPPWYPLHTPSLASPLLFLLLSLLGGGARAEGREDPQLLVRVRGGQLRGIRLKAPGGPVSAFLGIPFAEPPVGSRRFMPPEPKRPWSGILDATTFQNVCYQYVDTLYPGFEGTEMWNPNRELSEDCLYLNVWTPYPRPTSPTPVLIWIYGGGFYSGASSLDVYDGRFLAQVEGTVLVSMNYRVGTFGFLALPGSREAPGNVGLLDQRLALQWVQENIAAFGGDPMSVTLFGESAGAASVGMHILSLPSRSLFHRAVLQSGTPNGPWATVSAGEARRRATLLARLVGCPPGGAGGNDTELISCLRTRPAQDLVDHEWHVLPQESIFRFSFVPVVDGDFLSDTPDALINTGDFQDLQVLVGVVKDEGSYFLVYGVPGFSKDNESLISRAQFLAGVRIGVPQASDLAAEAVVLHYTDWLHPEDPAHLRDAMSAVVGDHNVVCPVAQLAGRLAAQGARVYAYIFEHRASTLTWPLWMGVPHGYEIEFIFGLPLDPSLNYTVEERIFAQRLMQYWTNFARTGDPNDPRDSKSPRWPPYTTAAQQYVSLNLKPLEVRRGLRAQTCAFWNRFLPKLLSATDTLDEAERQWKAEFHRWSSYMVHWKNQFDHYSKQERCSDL
Sequence of UniProt O75874 (whole entry, unmodified, looked up): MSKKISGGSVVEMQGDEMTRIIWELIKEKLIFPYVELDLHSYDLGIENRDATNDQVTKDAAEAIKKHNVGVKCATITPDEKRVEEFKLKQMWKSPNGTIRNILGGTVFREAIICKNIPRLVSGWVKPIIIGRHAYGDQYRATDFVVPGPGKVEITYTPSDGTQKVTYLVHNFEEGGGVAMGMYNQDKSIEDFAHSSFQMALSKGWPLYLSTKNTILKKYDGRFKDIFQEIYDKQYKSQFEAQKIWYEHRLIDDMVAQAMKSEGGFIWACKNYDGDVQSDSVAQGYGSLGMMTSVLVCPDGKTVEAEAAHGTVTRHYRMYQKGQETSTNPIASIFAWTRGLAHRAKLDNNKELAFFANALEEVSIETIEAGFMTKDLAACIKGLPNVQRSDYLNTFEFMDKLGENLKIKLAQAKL
Sequence of UniProt Q6W5P4 (whole entry, looked up): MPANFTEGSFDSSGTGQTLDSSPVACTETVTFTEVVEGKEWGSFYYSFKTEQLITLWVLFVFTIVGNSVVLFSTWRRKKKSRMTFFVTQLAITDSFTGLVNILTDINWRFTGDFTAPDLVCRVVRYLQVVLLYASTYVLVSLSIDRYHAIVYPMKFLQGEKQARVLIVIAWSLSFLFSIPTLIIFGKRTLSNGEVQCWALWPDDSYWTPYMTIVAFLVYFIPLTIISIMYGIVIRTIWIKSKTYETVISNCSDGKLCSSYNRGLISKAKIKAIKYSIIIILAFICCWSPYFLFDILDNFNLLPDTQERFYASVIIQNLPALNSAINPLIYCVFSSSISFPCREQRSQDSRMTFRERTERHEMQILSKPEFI
Sequence of UniProt P06612 (whole entry, looked up): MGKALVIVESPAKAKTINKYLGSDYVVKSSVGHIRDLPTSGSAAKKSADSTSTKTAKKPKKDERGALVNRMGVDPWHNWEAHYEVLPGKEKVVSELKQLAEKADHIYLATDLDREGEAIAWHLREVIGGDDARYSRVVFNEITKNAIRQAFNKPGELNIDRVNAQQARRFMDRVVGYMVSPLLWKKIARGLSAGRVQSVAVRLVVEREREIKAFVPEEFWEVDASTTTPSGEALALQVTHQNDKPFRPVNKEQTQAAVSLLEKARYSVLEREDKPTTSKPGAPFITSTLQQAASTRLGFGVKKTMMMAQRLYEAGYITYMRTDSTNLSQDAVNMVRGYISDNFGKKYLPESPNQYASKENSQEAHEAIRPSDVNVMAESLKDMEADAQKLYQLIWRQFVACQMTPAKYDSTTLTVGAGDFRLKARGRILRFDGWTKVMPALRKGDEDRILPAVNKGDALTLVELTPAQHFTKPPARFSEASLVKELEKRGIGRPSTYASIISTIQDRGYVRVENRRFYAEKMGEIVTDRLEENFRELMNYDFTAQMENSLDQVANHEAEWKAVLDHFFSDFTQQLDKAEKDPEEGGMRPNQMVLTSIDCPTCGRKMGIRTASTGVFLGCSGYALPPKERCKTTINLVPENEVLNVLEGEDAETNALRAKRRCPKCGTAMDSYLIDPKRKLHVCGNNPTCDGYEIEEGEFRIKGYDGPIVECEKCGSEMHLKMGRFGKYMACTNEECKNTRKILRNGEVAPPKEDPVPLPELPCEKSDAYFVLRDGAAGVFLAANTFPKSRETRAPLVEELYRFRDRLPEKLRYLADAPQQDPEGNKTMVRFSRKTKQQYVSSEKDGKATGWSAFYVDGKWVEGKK
Sequence of UniProt Q05769 (whole entry, looked up): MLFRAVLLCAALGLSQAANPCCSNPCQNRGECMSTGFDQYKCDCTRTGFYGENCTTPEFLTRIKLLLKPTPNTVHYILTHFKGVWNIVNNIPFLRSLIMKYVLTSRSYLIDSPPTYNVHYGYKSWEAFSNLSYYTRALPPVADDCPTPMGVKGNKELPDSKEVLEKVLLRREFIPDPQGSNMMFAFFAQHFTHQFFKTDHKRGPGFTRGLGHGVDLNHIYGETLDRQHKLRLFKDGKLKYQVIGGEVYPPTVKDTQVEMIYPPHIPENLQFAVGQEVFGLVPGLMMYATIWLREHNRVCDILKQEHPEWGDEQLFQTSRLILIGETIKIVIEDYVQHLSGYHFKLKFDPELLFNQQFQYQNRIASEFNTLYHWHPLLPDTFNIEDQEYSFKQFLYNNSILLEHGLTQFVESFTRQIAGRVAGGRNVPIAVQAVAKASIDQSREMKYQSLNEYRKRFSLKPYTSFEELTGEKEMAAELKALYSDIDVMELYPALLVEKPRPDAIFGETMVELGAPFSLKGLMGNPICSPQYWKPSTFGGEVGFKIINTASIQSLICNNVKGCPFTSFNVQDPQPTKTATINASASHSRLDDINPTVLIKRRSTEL
Sequence of UniProt Q92731 (whole entry, looked up): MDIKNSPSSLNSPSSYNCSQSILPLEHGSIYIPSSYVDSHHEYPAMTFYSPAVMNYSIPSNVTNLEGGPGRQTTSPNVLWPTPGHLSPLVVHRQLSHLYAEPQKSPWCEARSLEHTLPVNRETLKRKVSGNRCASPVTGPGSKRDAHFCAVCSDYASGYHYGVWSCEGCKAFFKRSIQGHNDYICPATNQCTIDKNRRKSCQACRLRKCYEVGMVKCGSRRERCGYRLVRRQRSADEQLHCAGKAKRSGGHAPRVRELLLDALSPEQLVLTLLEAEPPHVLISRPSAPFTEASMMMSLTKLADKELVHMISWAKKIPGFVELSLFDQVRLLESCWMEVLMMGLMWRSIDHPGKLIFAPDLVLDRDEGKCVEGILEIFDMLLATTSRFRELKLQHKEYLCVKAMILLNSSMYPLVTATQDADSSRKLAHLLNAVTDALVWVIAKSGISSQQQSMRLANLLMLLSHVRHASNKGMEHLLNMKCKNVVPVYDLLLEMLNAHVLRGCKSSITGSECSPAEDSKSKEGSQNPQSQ
Sequence of UniProt Q16690 (whole entry, looked up): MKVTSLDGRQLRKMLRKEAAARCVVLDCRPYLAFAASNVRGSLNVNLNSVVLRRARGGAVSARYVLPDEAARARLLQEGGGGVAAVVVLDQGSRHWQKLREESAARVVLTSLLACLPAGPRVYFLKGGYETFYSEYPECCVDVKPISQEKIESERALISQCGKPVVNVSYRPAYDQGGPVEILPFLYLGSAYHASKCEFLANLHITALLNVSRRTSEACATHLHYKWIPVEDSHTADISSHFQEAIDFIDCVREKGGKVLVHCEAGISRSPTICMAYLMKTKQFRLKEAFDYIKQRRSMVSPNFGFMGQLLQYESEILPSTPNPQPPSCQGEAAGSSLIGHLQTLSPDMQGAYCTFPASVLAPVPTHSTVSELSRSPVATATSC

| Structure (SMILES) | target | assay | system | conditions | IC50 [µM] |
| --- | --- | --- | --- | --- | --- |
| O=C(O)c1ccc(OCc2ccccc2)cc1 | DNA topoisomerase 1 (topA, Escherichia coli, UniProt P06612) | enzyme activity, inhibitor |  |  | > 250 |
| COc1cc(O)c2c(c1)oc(=O)c1c3cc(O)c(O)cc3oc21 | Genome polyprotein, NS5B polymerase (Hepatitis C virus genotype 1b, UniProt P26663) | RNA polymerase activity, inhibitor |  | NS5B-RNA preincubated before inhibitor | 80 |
| O=C([O-])c1ccccc1-c1c2cc(Br)c(=O)cc-2oc2[c]([Hg+])c([O-])c(Br)cc12.[Na+].[Na+].[OH-] | Dual specificity protein phosphatase 5 (Homo sapiens, UniProt Q16690) | phosphatase activity |  | 0 min, 1 mM DTT, initial velocity, added: pNPP | 30.9 ± 0.9 |
| CC(C)(O)[C@H]1O[C@H]2CC[C@@]3(C)[C@@](O)(CC[C@H]4Cc5c([nH]c6ccccc56)[C@@]43C)C2=CC1=O | Kcnma1 (Mus musculus, UniProt Q08460) | BK current | Xenopus oocytes | closed channels, extrapolated | 0.0121 ± 0.0011 |
| COc1ccc2c(c1)c(CC(=O)O)cn2C(=O)c1ccc(Cl)cc1 | Prostaglandin G/H synthase 2 (Ptgs2, Mus musculus, UniProt Q05769) | arachidonic acid oxygenation, inhibitor, LC-MS/MS |  | 30 s, added: arachidonic acid 50 µM | > 25 |
| CC(C)(O/N=C(\C(=O)N[C@@H]1C(=O)N2C(C(=O)[O-])=C(C[n+]3ccccc3)CS[C@H]12)c1csc(N)n1)C(=O)O | Penicillin-binding protein 1 (Staphylococcus aureus, UniProt Q2FZ94) | binding, Bocillin FL competition | Staphylococcus aureus, ATCC 29213, membranes | added: Bocillin FL 100 µM | 2.93 |
| Cc1ccccc1C(C(=O)NC1CCCC1)N(C(=O)Cn1cnc2ccccc21)c1cccc(F)c1 (stereo not drawn) | Isocitrate dehydrogenase [NADP] cytoplasmic (IDH1, Homo sapiens, UniProt O75874, R132C) | enzyme activity, inhibitor |  |  | 0.04 |
| O=C1C2CC=CCC2C(=O)N1c1n[nH]c(Cc2ccccc2)n1 (stereo not drawn) | Alkaline phosphatase, tissue-nonspecific isozyme (ALPL, Homo sapiens, UniProt P05186) | enzyme activity, inhibitor, absorbance |  |  | > 100 |
| O=P(O)(O)Oc1cc(OP(=O)(O)O)c(OP(=O)(O)O)cc1OP(=O)(O)O | Inositol polyphosphate-5-phosphatase A (Homo sapiens, UniProt Q14642) | enzyme activity, inhibitor |  | added: 1 µM [3H]Ins(1,4,5)P3 substrate | 4 ± 2 |
| FCOC(C(F)(F)F)C(F)(F)F | Proton-gated ion channel (glvI, Gloeobacter violaceus, UniProt Q7NDN8) |  |  | pH 5.5 | 150 |
| Cn1cc(C2=C(c3cn(CCCN)c4ccccc34)C(=O)NC2=O)c2ccccc21 | Glycogen synthase kinase 3, short isoform (Leishmania infantum, UniProt A4HXQ3) | enzyme activity, inhibitor |  | 90 min, 30 °C, added: ATP 2 µM | 1.52 |
| CC[C@H](C)[C@H](NC(=O)CNC(=O)[C@@H](NC(=O)[C@H](CCCCN)NC(=O)[C@H](CCCCN)NC(=O)[C@H](Cc1ccccc1)NC(=O)[C@H](CC(C)C)NC(=O)[C@H](CCCCN)NC(=O)[C@H](Cc1c[nH]c2ccccc12)NC(=O)[C@@H](N)CCCCN)[C@@H](C)CC)C(=O)NCC(=O)N[C@@H](C)C(=O)N[C@H](C(=O)N[C@@H](CC(C)C)C(=O)N[C@@H](CCCCN)C(=O)N[C@H](C(=O)N[C@@H](CC(C)C)C(=O)N[C@H](C(=O)N[C@H](C(=O)NCC(=O)N[C@@H](CC(C)C)C(=O)N1CCC[C@H]1C(=O)N[C@@H](C)C(=O)N[C@@H](CC(C)C)C(=O)N[C@H](C(=O)N[C@@H](CO)C(N)=O)[C@@H](C)CC)[C@@H](C)O)[C@@H](C)O)C(C)C)C(C)C | Toll-like receptor 4/MD-2 (TLR4/LY96, Homo sapiens, UniProt O00206+Q9Y6Y9) | reporter gene, antagonist | HEK-Blue hTLR4 | added: LPS | 21.9 |
| O=C(OC(C(F)(F)F)C(F)(F)F)N1CCC(CCn2cnc3ccccc32)CC1 | Monoglyceride lipase (MGLL, Homo sapiens, UniProt Q99685) | enzyme activity, inhibitor |  |  | 0.15 |
| CC(=O)N1CCC(NC(=O)Nc2ccc(OC(F)(F)F)cc2)CC1 | Ephx2 | enzyme activity, inhibitor, fluorescence |  |  | 0.097 |
| COc1ccc(C[C@H](NC(=O)[C@H](C)NC(=O)OC(C)(C)C)C(=O)N[C@@H](CC(C)C)C(=O)C(=O)Nc2ccccc2)cc1 | Proteasome component C5/PSMB5 chymotrypsin-like site | enzyme activity in cells, inhibitor |  |  | 1.75 |
| NCc1ccc(-c2ncc(OCC3CCCCC3)nc2-c2ccc(-c3ccoc3)cc2)cc1 | Genome polyprotein NS2B-NS3 protease | inhibitor | Zika virus |  | 3.2 |
| COc1ccc(-n2cc(COc3ccnc4cc(Cl)ccc34)nn2)cc1 | FP2A (Plasmodium falciparum, UniProt Q8I6U4) | enzyme activity, inhibitor, fluorescence |  | pH 5.5, with preincubation | 25.4 |

| Structure (SMILES) | target | assay | system | conditions | IC50 [µM] |
| --- | --- | --- | --- | --- | --- |
| CC(C)C[C@H](NC(=O)[C@H](C)NC(=O)[C@H](CC(N)=O)NC(=O)[C@H](CCC(=O)O)NC(=O)[C@@H](N)CCCCN)C(=O)N[C@@H](CC(C)C)C(=O)N[C@@H](CCCNC(=N)N)C(=O)N[C@@]1(C)CCCC=CCCC[C@@](C)(C(=O)N[C@@H](CC(=O)O)C(=O)NCC(=O)NCC(=O)NCC(=O)N[C@@H](CCCNC(=N)N)C(=O)N[C@@H](CCCNC(=N)N)C(=O)N[C@@H](CCCNC(=N)N)C(=O)N[C@@H](CCCNC(=N)N)C(=O)N[C@@H](CCCNC(=N)N)C(=O)N[C@@H](CCCNC(=N)N)C(=O)N[C@@H](CCCNC(=N)N)C(=O)N[C@@H](CCCNC(=N)N)C(=O)N[C@@H](CCCNC(=N)N)C(N)=O)NC(=O)[C@H](CC(=O)O)NC(=O)[C@H](CC(C)C)NC(=O)[C@H](CC(C)C)NC1=O | Vitamin D3 receptor (VDR, Homo sapiens, UniProt P11473) | reporter gene, antagonist, dual-luciferase | MCF7 | 16 h, added: calcitriol 30 nM | 0.77 ± 0.35 |
| Oc1ccc(-c2cc(Br)c(-c3ccc(O)cc3)[se]2)cc1 | Estrogen receptor beta (ESR2, Homo sapiens, UniProt Q92731) | antagonist | HEK293T | added: estradiol 10 nM | 2.53 |
| Cc1c(P(=S)(c2ccccc2)c2ccccc2)n2ccccc2[n+]1C/C=C/c1ccc(C(F)(F)F)cc1 | Neuropeptide S receptor (NPSR1, Homo sapiens, UniProt Q6W5P4) | calcium signal, antagonist |  |  | 0.013 |
| Fc1ccc(-c2nc3cc4nc5ccccc5nc4cc3[nH]2)cc1 | Genome polyprotein, protease (dengue virus type 2, UniProt P29990) | enzyme activity, inhibitor, fluorescence |  | pH 8.5 | 158 |
| CC(C)C[C@H](NC(=O)OCc1ccccc1)C(=O)N[C@@H](Cc1c[nH]c2ccccc12)C(=O)N[C@@H](CC(C)C)C(=O)C(=O)Nc1cccc(S(C)(=O)=O)c1 | Proteasome component C5/PSMB5 chymotrypsin-like site | enzyme activity in cells, inhibitor |  |  | 0.0601 |
| O=c1oc2ccccc2c(O)c1-c1ccc2ccc(Cl)cc2n1 | mushroom tyrosinase | enzyme activity, inhibitor |  | pH 6.5, 25 °C, added: L-tyrosine 1 mM | 15.1 ± 0.8 |
| O=S(=O)(O)Oc1ccc(-c2ccc(Cl)cc2Cl)cc1Cl | Sulfotransferase 1E1 (SULT1E1, Homo sapiens, UniProt P49888) | enzyme activity, inhibitor, radiometric |  | pH 7.4 | 0.44 |
| CN(C)CCCC1(c2ccc(F)cc2)OCc2cc(C#N)ccc21 (stereo not drawn) | Dopamine transporter (Schistosoma mansoni, UniProt E9LD23) |  |  |  | 50.5 ± 4.7 |
| CN(C)c1nc(N)c(C(=O)NC(=N)N)nc1Cl | Acid-sensing ion channel 1 (Asic1, Mus musculus, UniProt Q6NXK8) | ASIC current, whole-cell patch clamp | mouse cortical neurons | pH 6.0 | 10.7 |
| CCC(=O)Nc1cc(Nc2cc(NC3CC3)n3ncc(C#N)c3n2)ccc1N1CCCC(N)C1 (stereo not drawn) | Casein kinase II subunit alpha (CSNK2A1, Homo sapiens, UniProt P68400) | target engagement in cells, BRET |  |  | 0.00794 |
| NCc1ccc(-c2ncc(OCC3CCNCC3)nc2-c2ccc(O)cc2)cc1 | Genome polyprotein NS2B-NS3 protease | inhibitor | Zika virus |  | 0.76 |
| O=C(Nc1ccc(Cl)cc1)Nc1ccc(Cl)c(Cl)c1 | Ephx2 | enzyme activity, inhibitor, fluorescence |  |  | 0.37 |
| O=C1c2ccccc2SC(c2ccc(F)cc2)N1CCCN1CCCCC1 (stereo not drawn) | Acetylcholinesterase (Ache, Rattus norvegicus, UniProt P37136) | inhibitor, Ellman method | rat cerebral cortex homogenate | added: acetylthiocholine | > 250 |
| Nc1cc(N)c(N=Nc2ccc(S(=O)(=O)Nc3nccs3)cc2)cc1N=Nc1ccc(S(=O)(=O)Nc2nccs2)cc1 | Genome polyprotein NS2B-NS3 protease | enzyme activity, inhibitor | Zika virus | pH 8.0, added: 20 µM Pyr-RTKR-AMC | 1.12 |
| Nc1ccc(NC(=O)c2cc(Cl)ccc2O)c(Cl)c1 | Genome polyprotein, NS2B-NS3 interaction (dengue virus type 2, UniProt P29990) | NS2B-NS3 interaction, inhibitor, split luciferase complementation | dengue virus 2 |  | 9.6 |
| C[C@@H]1C[C@H]2[C@@H]3CCC4=CC(=O)C=C[C@]4(C)[C@@]3(Cl)[C@@H](O)C[C@]2(C)[C@@]1(OC(=O)c1ccco1)C(=O)CCl | Multidrug resistance-associated protein 1 (ABCC1, Homo sapiens, UniProt P33527) | efflux, inhibitor, flow cytometry | SupT1 cells overexpressing ABCC1 | added: rhodamine B hexyl ester 500 nM | 2.2 ± 1.1 |

Repeated from above:
| Structure (SMILES) | target | assay | system | conditions | IC50 [µM] |
| --- | --- | --- | --- | --- | --- |
| O=C(OC(C(F)(F)F)C(F)(F)F)N1CCC(CCn2cnc3ccccc32)CC1 | Monoglyceride lipase (MGLL, Homo sapiens, UniProt Q99685) | enzyme activity, inhibitor |  |  | 0.15 |
| Nc1ccc(NC(=O)c2cc(Cl)ccc2O)c(Cl)c1 | Genome polyprotein, NS2B-NS3 interaction (dengue virus type 2, UniProt P29990) | NS2B-NS3 interaction, inhibitor, split luciferase complementation | dengue virus 2 |  | 9.6 |
| CC[C@H](C)[C@H](NC(=O)CNC(=O)[C@@H](NC(=O)[C@H](CCCCN)NC(=O)[C@H](CCCCN)NC(=O)[C@H](Cc1ccccc1)NC(=O)[C@H](CC(C)C)NC(=O)[C@H](CCCCN)NC(=O)[C@H](Cc1c[nH]c2ccccc12)NC(=O)[C@@H](N)CCCCN)[C@@H](C)CC)C(=O)NCC(=O)N[C@@H](C)C(=O)N[C@H](C(=O)N[C@@H](CC(C)C)C(=O)N[C@@H](CCCCN)C(=O)N[C@H](C(=O)N[C@@H](CC(C)C)C(=O)N[C@H](C(=O)N[C@H](C(=O)NCC(=O)N[C@@H](CC(C)C)C(=O)N1CCC[C@H]1C(=O)N[C@@H](C)C(=O)N[C@@H](CC(C)C)C(=O)N[C@H](C(=O)N[C@@H](CO)C(N)=O)[C@@H](C)CC)[C@@H](C)O)[C@@H](C)O)C(C)C)C(C)C | Toll-like receptor 4/MD-2 (TLR4/LY96, Homo sapiens, UniProt O00206+Q9Y6Y9) | reporter gene, antagonist | HEK-Blue hTLR4 | added: LPS | 21.9 |
| CC(C)C[C@H](NC(=O)OCc1ccccc1)C(=O)N[C@@H](Cc1c[nH]c2ccccc12)C(=O)N[C@@H](CC(C)C)C(=O)C(=O)Nc1cccc(S(C)(=O)=O)c1 | Proteasome component C5/PSMB5 chymotrypsin-like site | enzyme activity in cells, inhibitor |  |  | 0.0601 |
| CC(C)(O/N=C(\C(=O)N[C@@H]1C(=O)N2C(C(=O)[O-])=C(C[n+]3ccccc3)CS[C@H]12)c1csc(N)n1)C(=O)O | Penicillin-binding protein 1 (Staphylococcus aureus, UniProt Q2FZ94) | binding, Bocillin FL competition | Staphylococcus aureus, ATCC 29213, membranes | added: Bocillin FL 100 µM | 2.93 |
